Measurements of several laboratories.
Protocols differ between the studies behind these lines.
MAP3K4: Mitogen-activated protein kinase kinase kinase 4 (MAP3K4, Homo sapiens, UniProt Q9Y6R4)
Chain of UniProt Q9Y6R4 (whole entry, looked up): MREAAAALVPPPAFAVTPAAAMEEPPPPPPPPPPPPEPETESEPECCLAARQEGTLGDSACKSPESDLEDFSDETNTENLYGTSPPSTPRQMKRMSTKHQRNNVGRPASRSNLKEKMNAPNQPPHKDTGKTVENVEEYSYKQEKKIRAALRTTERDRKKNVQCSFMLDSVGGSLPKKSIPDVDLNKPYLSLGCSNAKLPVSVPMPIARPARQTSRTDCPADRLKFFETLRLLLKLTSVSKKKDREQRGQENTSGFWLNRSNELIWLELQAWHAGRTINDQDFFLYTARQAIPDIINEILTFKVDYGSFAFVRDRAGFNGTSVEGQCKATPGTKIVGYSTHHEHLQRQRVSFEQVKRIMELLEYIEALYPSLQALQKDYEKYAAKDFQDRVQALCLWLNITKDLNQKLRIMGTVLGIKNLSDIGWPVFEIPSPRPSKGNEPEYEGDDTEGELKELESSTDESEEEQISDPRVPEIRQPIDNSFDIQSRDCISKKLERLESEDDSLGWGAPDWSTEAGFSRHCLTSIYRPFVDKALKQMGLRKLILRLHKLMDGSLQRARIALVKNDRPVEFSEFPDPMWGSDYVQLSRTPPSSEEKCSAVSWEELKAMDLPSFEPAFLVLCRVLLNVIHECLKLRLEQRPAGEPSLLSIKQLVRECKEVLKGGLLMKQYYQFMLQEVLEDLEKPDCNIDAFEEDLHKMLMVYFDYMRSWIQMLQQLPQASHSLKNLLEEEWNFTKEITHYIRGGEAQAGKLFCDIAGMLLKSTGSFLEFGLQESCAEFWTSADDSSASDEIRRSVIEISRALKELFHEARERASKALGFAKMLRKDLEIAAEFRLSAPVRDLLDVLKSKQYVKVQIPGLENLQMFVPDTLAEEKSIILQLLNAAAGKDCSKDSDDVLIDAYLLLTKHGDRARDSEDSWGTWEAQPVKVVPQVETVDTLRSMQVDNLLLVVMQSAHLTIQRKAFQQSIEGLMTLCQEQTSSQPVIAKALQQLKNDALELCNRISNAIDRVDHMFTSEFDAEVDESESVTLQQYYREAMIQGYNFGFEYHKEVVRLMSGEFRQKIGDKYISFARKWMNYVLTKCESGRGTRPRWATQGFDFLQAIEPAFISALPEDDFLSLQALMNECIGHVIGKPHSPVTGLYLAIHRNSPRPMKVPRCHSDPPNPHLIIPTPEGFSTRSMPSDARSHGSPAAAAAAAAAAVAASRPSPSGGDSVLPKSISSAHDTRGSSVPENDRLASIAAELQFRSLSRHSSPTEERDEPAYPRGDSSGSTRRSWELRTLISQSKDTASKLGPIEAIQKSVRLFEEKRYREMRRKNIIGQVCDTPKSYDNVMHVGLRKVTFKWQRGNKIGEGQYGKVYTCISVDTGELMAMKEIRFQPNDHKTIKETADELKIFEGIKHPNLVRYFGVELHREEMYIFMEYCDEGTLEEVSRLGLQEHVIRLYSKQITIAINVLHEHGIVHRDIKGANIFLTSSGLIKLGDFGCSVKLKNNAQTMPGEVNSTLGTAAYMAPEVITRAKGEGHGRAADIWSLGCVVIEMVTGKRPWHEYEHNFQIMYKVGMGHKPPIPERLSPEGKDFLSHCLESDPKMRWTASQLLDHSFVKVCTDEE
Chain of UniProt P28223 (whole entry, looked up): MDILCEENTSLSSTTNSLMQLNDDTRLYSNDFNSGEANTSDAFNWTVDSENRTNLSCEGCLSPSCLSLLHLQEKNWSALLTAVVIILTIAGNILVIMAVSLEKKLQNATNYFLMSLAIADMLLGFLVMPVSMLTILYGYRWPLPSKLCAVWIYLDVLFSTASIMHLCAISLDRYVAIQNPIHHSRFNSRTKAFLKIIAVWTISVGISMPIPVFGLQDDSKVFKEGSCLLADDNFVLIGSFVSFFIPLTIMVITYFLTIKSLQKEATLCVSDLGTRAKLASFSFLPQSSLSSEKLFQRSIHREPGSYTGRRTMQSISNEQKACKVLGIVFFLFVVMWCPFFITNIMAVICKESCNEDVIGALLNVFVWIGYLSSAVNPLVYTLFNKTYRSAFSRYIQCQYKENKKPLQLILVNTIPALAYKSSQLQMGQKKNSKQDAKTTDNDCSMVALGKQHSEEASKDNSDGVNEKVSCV
Chain of UniProt Q9UKE5 (whole entry, looked up): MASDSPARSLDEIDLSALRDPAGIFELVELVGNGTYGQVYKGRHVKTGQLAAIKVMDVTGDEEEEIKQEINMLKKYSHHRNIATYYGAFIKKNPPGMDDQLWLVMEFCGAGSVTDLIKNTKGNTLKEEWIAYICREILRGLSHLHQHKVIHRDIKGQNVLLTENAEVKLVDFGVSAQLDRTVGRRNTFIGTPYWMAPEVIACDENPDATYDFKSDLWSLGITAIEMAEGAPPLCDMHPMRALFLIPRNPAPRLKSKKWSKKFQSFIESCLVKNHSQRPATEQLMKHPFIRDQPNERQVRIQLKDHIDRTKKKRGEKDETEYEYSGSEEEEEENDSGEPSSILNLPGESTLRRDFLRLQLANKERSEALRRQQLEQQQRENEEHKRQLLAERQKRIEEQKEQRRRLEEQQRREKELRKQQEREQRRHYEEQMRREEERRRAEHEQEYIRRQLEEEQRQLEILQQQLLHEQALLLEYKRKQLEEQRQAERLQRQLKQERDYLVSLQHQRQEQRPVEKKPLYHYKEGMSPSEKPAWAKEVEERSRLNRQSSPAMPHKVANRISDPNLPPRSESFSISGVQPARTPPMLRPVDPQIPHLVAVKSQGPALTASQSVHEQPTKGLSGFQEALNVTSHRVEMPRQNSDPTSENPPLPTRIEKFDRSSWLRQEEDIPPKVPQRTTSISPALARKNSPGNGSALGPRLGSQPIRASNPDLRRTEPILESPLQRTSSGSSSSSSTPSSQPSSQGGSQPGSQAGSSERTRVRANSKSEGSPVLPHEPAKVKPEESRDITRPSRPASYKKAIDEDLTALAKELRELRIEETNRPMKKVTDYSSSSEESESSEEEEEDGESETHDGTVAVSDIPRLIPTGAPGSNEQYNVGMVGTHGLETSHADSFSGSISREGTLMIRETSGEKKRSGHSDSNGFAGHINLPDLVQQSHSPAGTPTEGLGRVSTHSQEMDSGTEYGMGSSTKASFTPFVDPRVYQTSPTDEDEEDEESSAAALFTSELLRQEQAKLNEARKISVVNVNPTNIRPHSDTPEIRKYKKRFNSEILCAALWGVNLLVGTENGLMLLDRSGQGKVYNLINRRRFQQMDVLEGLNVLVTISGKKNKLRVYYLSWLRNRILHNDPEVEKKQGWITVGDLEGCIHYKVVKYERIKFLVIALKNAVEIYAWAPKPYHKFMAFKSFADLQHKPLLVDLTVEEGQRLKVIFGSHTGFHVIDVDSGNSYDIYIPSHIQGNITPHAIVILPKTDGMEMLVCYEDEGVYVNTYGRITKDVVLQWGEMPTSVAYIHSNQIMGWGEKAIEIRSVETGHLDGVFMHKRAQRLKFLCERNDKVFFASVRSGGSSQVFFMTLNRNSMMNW
Chain of UniProt P35348 (whole entry, looked up): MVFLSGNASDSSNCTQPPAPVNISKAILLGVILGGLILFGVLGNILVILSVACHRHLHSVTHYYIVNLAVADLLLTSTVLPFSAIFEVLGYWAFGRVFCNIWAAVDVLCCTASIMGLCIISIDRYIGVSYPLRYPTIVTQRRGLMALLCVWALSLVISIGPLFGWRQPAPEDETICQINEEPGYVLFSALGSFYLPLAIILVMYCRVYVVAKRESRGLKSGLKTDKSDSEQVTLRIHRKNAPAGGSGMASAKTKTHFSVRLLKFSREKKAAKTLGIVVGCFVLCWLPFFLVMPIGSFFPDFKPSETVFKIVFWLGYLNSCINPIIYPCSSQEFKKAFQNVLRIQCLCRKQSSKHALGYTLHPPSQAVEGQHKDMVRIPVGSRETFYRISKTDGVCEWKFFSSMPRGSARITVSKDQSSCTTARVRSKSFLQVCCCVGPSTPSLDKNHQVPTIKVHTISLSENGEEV

N=C(N)NCCC[C@@H](NC(=O)[C@@H](N)Cc1ccccc1)C(=O)N[C@@H](Cc1ccccc1)C(=O)N[C@@H](CCCCN)C(N)=O  AUC(0-t) (human, plasma; subcutaneous, 15 mg, multiple doses, once daily, patients): 3300 ng·h/mL
Cl.Cn1c(=O)n(CCCCN2CCC3(CC2)OCc2ccccc23)c2ccccc21  AUC (male Sprague-Dawley rat, plasma; intravenous, 5 mg/kg): 3850 ng·h/mL
CC(C)(N)CNC(=O)O[C@@H]1CCC[C@]2(C1)OOC1(O2)C2CC3CC(C2)CC1C3 (stereo partly shown)  Cmax (male CD-1 mouse, plasma; oral, 10 mg/kg): 147 ng/mL
CC(C)C[C@H](NC(=O)[C@H](Cc1ccccc1)NC(=O)[C@H](Cc1ccccc1)NC(=O)Cc1ccc(-c2ccccc2)cc1)C(=O)N[C@@H](CCCCN)C(=O)N[C@@H](CCCNC(=N)N)C(=O)N[C@H](C(=O)N[C@@H](Cc1c[nH]c2ccccc12)C(=O)N[C@@H](CCCCN)C(=O)N[C@@H](CCCNC(=N)N)C(=O)O)C(C)C  compound remaining (metabolic stability, mass spectrometry; mouse, liver microsomes; 1 h): 9.98%
[2H]c1c([2H])c([C@]2([2H])CCCN2C(=O)C(C)(C)Oc2ccc3cn[nH]c3c2)c([2H])c([2H])c1C([2H])([2H])[2H]  remaining binding (MAP3K4; binding, competition with immobilised ligand; 1 µM): 73%
Cc1nn(C)cc1-c1nc2c(N3CCN(Cc4ccc(Cl)cc4)CC3)c(Cl)cnc2[nH]1  remaining binding (MAP3K4; binding, competition with immobilised ligand; 1 µM): 94%
Nc1nc(-c2ccccc2)nc2[nH]nc(Nc3ccc(C(F)(F)F)cc3)c12  concentration (mouse, plasma; oral, 100 mg/kg, 3 h): 1250 ng/mL
CN(C)C1(CNC(=O)c2ccc3c(c2)CCN3C(=O)c2ccccc2)CCOCC1  concentration (male C57BL/6 mouse, plasma; intraperitoneal, 50 mg/kg, 2 h): 133 ng/mL
O=C(Nc1cccnn1)N1CCN([C@@H]2CCOc3cc(C(F)(F)F)ccc32)CC1  Cmax (male Sprague-Dawley rat, plasma; oral, 1 mg/kg): 480 nM
Cc1cc(C)nc(Nc2ncc(C(=O)NCCc3c(C)[nH]c4ccccc34)cn2)c1  half-life (metabolic stability; beagle dog, hepatocytes; 1 µM): 78 min
CC(=O)c1c(C)c2cnc(Nc3ccc(C4CCN(CCS(C)(=O)=O)CC4)cn3)nc2n(C2CCCC2)c1=O  half-life (metabolic stability; dog, liver microsomes): 19.1 min
Nc1ncc(-c2nc(N3CCOCC3)nc(N3CCOCC3)n2)c(C(F)F)n1  remaining signal (ADRA1A (Homo sapiens, UniProt P35348); cell-free assay, radioligand; 10 µM): 94.4%
[18FH]  tracer uptake (mouse, bone; intravenous, 1 h): 12 %ID/g
N.N.[Cl][Pt][Cl]  inhibition (SU-DHL-2; cell growth or viability, ATP luminescence; 10 µM, 72 h): 100%
COc1ncccc1-c1cnn2ccc(N3CCN(C(=O)OC(C)C)CC3)nc12  remaining binding (TNIK (Homo sapiens, UniProt Q9UKE5); binding, competition with immobilised ligand; 1 µM): 83%
CC(C)CC(=O)OC[C@H]1O[C@@](C#N)(c2ccc3c(N)ncnn23)[C@H](O)[C@@H]1O  half-life (metabolic stability; dog, hepatocytes; 5 µM): < 4.36 min
CC[C@H](C)CCCCC(=O)N[C@@H](CCN)C(=O)N[C@H](C(=O)N[C@@H](CCN)C(=O)N[C@H]1CCNC(=O)[C@H]([C@@H](C)O)NC(=O)[C@H](CCN)NC(=O)[C@H](CCN)NC(=O)[C@H](CC(C)C)NC(=O)[C@@H](CC(C)C)NC(=O)[C@H](CCN)NC1=O)[C@@H](C)O  Cmax (male Sprague-Dawley rat, plasma; subcutaneous, 10 mg/kg): 2750 ng/mL
COc1cc(CCNC(C)c2ccccc2O)c(OC)cc1C#N (stereo not shown)  Emax (HTR2A (Homo sapiens, UniProt P28223); β-arrestin recruitment, agonist): 108%
CCC[C@@](N)(CO)CCc1ccc(OCCCCCC(C)C)cc1  Cmax (rat, plasma; oral, 10 mg/kg): 279 nM

Some of these lines once more:
Cc1cc(C)nc(Nc2ncc(C(=O)NCCc3c(C)[nH]c4ccccc34)cn2)c1  half-life (metabolic stability; beagle dog, hepatocytes; 1 µM): 78 min
CC(=O)c1c(C)c2cnc(Nc3ccc(C4CCN(CCS(C)(=O)=O)CC4)cn3)nc2n(C2CCCC2)c1=O  half-life (metabolic stability; dog, liver microsomes): 19.1 min
Nc1ncc(-c2nc(N3CCOCC3)nc(N3CCOCC3)n2)c(C(F)F)n1  remaining signal (ADRA1A (Homo sapiens, UniProt P35348); cell-free assay, radioligand; 10 µM): 94.4%
